Published values from different studies.
Lines come from different studies, so protocols differ.
Sequence of UniProt O00506 (whole entry, looked up): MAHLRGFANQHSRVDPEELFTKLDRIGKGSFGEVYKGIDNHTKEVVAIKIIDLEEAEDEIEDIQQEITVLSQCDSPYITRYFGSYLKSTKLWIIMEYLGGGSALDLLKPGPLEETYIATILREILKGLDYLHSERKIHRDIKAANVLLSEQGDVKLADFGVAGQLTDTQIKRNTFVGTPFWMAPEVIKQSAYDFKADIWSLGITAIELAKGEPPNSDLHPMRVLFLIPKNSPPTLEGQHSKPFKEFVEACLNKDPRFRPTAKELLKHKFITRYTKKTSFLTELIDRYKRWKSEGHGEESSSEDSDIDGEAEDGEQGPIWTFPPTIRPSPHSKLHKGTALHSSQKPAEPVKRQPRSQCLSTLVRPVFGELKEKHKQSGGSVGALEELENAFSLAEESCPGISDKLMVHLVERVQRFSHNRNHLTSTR

For `O=C(O)c1ccc(-n2nc(-c3ccccc3O)nc2-c2ccccc2O)cc1`, the CC50 was greater than 200 µM (HEK293; cell growth or viability, MTT; 24 h).
`NC(=S)NN=Cc1ccc(OC(=O)CN2C(=O)CSC2=O)cc1` has a viability of greater than 70% (HEK293; cell growth or viability, MTT; 50 µg/mL, 24 h).
With `CNc1ncc2c(/C=C/C(=O)N3CCC(OC)CC3)nn(Cc3cccc(C(F)(F)F)c3)c2n1` the remaining activity was 95% (Serine/threonine-protein kinase 25 (STK25, Homo sapiens, UniProt O00506); enzyme activity, inhibitor, radiometric; 1 µM).
With `Cc1ccc(Cn2cc(C(=O)N/N=C/c3ccc([N+](=O)[O-])o3)c(=O)c3cc(Cl)ccc32)cc1` the CC50 was 1.9 µM (HEK293; cell growth or viability, resazurin; 48 h).
The viability of `Cc1ccc(S(=O)(=O)NNc2ccc([N+](=O)[O-])cc2[N+](=O)[O-])cc1` is reported as 93.6% (HEK293; cell growth or viability, MTT; 3.91 µg/mL).
`CC(C)[C@@H](C)Nc1nc(-c2cccs2)nc(Cl)c1-c1cc(F)cc(F)c1` has a CC50 of greater than 50 µM (HEK293; cell growth or viability, resazurin; 48 h).
The viability of `Cc1ccc(S(=O)(=O)[N](Nc2ccc([N+](=O)[O-])cc2[N+](=O)[O-])[Sn]([Cl])[Cl])cc1` is reported as 80.7% (HEK293; cell growth or viability, MTT; 125 µg/mL).
`Nc1nc(-c2cccs2)nc(Cl)c1-c1c(F)cc(F)cc1F` has a CC50 of 31.6 µM (HEK293; cell growth or viability, resazurin; 48 h).
With `O=C(O)c1cc(-c2ccc(Br)cc2)nc2ccc(Cl)cc12` the CC50 was greater than 200 µM (HEK293; cell growth or viability, MTT; 24 h).
`Nc1ccn([C@@H]2O[C@H](CO)[C@@H](O)C2(F)F)c(=O)n1` gave a viability of 17.4% (HEK293; cell growth or viability, MTT; 10 µg/mL, 48 h).
`CC(C)[C@@H](C)Nc1nc(-c2cccs2)nc(Cl)c1-c1ccc(F)cc1` gave a CC50 of greater than 50 µM (HEK293; cell growth or viability, resazurin; 48 h).
With `Cc1ccc(Cn2cc(C(=O)N/N=C/c3ccc([N+](=O)[O-])o3)c(=O)c3cc(Cl)c(Cl)cc32)cc1` the CC50 was greater than 20 µM (HEK293; cell growth or viability, resazurin; 48 h).
`Fc1cc(F)c(-c2c(Cl)nc(-c3cccs3)nc2N2CCOC2)c(F)c1` has a CC50 of 36.7 µM (HEK293; cell growth or viability, resazurin; 48 h).
With `CCCc1cc(=O)oc2cc(OCc3cc(=O)c(O)co3)ccc12` the viability was 83.9% (HEK293; cell growth or viability, CCK-8; 108 µM, 24 h).
The CC50 of `CC1(CNc2nc(-c3cccs3)nc(Cl)c2-c2c(F)cc(C#N)cc2F)COC1` is reported as 23.7 µM (HEK293; cell growth or viability, resazurin; 48 h).
With `COc1cc2c(cc1O)[C@@H](Cc1ccc(O)cc1)[N+](C)(C)CC2` the CC50 was greater than 318 µM (HEK293; cell growth or viability, MTT).

Repeated from above:
`CC(C)[C@@H](C)Nc1nc(-c2cccs2)nc(Cl)c1-c1cc(F)cc(F)c1` has a CC50 of greater than 50 µM (HEK293; cell growth or viability, resazurin; 48 h).
